Published values of several laboratories.
Numbered parts are unrelated; each lists some results of a single study.
Sequence of UniProt Q8NE63 (whole entry, looked up): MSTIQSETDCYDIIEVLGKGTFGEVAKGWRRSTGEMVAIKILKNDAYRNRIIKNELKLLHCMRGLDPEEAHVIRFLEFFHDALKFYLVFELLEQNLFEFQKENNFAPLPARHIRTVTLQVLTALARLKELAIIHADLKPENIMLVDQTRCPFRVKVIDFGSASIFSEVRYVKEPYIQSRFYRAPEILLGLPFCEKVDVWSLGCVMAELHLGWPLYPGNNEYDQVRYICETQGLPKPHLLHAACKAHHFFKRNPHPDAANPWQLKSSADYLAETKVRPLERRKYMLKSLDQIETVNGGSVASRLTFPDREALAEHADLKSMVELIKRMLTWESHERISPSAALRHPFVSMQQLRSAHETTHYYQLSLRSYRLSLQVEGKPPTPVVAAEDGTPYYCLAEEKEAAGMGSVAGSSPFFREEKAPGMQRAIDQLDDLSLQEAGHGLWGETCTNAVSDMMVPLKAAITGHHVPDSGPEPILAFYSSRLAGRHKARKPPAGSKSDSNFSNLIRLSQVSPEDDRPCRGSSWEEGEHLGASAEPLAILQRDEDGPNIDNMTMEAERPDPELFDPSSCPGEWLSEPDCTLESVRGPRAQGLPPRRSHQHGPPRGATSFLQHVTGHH
Sequence of UniProt Q9BWU1 (whole entry, looked up): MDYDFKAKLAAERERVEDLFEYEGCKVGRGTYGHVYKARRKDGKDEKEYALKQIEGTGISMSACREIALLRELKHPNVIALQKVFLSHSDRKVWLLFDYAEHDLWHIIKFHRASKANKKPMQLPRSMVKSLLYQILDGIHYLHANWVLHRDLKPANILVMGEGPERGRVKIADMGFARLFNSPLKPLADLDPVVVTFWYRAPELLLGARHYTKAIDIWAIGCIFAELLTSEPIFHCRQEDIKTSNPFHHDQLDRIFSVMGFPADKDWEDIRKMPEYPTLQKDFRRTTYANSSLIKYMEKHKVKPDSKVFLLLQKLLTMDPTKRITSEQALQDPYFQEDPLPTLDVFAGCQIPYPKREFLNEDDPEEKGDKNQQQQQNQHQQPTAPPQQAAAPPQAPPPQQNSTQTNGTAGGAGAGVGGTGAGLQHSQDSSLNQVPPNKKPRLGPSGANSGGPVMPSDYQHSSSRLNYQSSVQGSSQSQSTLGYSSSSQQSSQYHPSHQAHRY
Sequence of UniProt Q8TDR2 (whole entry, looked up): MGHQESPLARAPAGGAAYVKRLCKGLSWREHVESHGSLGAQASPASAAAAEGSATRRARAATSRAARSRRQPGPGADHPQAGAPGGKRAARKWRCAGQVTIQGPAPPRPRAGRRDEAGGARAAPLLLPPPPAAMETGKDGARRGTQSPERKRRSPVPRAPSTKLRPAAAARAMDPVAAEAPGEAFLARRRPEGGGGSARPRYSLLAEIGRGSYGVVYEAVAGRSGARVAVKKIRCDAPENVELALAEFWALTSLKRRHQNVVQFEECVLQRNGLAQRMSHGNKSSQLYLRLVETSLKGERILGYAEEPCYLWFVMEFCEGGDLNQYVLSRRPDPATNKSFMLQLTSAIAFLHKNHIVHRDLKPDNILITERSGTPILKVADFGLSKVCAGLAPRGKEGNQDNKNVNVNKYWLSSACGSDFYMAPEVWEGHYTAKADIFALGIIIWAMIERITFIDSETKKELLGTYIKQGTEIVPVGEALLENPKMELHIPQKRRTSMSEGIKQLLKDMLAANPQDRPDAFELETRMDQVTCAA
Sequence of UniProt Q09013 (whole entry, looked up): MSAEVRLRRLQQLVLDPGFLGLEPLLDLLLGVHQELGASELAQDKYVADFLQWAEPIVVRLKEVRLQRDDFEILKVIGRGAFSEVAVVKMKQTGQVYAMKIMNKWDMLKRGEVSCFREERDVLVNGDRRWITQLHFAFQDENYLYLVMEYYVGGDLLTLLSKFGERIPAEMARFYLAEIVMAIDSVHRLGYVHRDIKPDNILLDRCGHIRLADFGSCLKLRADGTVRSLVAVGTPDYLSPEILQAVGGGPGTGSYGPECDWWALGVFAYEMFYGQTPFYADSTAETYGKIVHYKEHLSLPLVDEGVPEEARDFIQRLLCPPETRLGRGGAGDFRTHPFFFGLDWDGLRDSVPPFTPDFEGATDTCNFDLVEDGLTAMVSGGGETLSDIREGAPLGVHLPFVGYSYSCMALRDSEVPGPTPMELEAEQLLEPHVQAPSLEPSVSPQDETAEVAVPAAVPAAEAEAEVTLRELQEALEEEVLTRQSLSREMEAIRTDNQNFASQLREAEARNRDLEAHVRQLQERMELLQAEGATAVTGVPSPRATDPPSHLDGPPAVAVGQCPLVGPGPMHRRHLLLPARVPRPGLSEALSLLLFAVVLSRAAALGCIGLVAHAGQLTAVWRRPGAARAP
Sequence of UniProt P51451 (whole entry, looked up): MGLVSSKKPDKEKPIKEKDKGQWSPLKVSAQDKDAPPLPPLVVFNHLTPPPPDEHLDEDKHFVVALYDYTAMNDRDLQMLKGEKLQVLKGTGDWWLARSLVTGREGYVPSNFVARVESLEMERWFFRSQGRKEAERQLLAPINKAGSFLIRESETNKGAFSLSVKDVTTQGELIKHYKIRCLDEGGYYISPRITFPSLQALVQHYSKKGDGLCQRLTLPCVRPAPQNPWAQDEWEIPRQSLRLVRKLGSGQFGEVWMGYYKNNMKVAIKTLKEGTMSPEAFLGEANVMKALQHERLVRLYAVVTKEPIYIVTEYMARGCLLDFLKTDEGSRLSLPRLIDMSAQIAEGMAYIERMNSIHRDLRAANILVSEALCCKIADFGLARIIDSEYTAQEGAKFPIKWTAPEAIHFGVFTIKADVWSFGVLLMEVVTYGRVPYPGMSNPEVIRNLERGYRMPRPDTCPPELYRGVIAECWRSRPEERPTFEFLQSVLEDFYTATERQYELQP
Sequence of UniProt O96013 (whole entry, looked up): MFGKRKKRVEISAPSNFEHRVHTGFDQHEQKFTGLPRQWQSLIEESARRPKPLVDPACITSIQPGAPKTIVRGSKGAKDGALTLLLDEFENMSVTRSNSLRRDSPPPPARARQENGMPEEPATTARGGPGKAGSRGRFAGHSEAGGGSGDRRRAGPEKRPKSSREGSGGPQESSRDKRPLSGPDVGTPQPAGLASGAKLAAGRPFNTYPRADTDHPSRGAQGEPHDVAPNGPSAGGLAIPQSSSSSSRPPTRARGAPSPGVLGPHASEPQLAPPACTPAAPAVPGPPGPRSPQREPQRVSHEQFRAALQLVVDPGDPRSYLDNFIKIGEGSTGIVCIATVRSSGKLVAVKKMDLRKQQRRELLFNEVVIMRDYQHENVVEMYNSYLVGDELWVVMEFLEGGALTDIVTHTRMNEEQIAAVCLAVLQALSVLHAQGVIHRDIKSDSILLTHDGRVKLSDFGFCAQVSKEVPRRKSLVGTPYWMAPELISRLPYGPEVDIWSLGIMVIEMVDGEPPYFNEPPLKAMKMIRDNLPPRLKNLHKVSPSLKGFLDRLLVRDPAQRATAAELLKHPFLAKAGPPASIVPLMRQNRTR
Sequence of UniProt O95819 (whole entry, looked up): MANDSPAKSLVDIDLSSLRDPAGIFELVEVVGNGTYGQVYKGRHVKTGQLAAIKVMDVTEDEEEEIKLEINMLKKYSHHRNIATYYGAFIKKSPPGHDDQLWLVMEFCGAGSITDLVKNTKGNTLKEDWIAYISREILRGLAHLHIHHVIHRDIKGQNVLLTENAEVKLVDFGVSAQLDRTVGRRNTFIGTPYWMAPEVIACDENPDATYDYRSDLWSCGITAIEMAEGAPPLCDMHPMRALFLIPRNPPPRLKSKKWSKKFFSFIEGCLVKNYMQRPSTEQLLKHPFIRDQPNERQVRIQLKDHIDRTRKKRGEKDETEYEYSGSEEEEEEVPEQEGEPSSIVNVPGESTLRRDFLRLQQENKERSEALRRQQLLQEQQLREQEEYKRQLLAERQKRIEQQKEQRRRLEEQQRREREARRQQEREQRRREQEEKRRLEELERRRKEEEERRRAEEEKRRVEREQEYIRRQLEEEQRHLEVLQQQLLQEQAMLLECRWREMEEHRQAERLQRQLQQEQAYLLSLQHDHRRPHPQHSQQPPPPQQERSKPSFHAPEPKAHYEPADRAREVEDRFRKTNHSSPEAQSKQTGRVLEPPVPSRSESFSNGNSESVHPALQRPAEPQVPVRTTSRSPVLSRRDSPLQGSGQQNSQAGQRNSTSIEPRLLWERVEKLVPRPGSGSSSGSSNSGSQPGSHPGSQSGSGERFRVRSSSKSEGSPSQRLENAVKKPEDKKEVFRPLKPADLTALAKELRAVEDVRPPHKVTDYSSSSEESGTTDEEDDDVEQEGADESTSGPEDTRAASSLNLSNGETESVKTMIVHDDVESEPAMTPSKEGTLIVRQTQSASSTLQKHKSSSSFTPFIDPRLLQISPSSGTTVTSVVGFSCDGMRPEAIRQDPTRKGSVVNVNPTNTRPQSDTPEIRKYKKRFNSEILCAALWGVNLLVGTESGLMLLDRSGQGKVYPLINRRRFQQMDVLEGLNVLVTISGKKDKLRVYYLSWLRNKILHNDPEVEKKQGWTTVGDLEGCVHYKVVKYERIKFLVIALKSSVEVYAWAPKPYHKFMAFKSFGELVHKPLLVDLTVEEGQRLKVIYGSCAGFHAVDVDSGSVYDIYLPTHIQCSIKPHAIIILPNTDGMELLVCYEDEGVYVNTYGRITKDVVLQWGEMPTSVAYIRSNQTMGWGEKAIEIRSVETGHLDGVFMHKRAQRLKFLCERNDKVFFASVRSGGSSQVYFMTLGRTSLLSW
Sequence of UniProt Q9HC98 (whole entry, looked up): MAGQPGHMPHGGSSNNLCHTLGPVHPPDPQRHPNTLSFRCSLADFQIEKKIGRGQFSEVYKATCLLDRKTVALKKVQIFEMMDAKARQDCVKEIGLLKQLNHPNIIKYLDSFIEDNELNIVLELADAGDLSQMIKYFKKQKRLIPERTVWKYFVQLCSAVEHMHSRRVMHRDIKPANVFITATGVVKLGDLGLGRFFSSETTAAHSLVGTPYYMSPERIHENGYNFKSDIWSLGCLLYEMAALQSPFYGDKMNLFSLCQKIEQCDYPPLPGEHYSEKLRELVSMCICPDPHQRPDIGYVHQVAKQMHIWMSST

Set 1
Target: Diamine acetyltransferase 1 (Homo sapiens, UniProt P21673)
Mode: inhibitor
Concentration: 10 µM
Relative to: control
Residues (P21673 1-171): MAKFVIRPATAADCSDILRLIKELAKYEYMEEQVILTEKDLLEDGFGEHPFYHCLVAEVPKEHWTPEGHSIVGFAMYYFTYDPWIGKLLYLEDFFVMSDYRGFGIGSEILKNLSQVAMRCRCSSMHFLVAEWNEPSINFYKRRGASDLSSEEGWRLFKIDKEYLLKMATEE
| Compound | remaining activity [%] |
| --- | --- |
| CCC/C=C1/OC(=O)c2ccccc21 | 95.8 |
| C=C1CC[C@H](O)C/C1=C/C=C1\CCC[C@]2(C)[C@@H]([C@H](C)CCCC(C)C)CC[C@@H]12 | 108 |
| NC(N)=NCCCC(N)C(=O)O (racemic) | 102 |
| COc1c2ccoc2nc2c(O)cccc12 | 98.8 |
| CC(C)=CCCC(C)CCO (stereo not drawn) | 99.2 |
| O=C(O)CCc1ccc(O)c(O)c1 | 78.9 |
| CC(C)=CCc1c(O)ccc(C(=O)/C=C/c2ccc(O)cc2)c1O | 90.8 |
| O=C(O)[C@@H]1CCCN1 | 90 |
| CCCCCCCCCCCCCCCCO | 80.6 |
| CC(C)CCCC(C)CCCC(C)CCCCC(C)CCCC(C)CCCC(C)C (stereo not drawn) | 85.4 |
| CCCCC1OC(=O)c2ccccc21 (stereo not drawn) | 87.1 |
| COc1cc2c[n+](C)c3c4cc5c(cc4ccc3c2cc1OC)OCO5 | 106 |

Set 2
SMILES: COc1ccc2c(c1)O[C@@H](c1ccc(OC)c(OC)c1)C[C@H]2NC(=O)C1(c2ccc3c(c2)OC(F)(F)O3)CC1
Concentration: 1 µM
| target | assay | remaining binding [%] |
| --- | --- | --- |
| SBK1 (Homo sapiens, UniProt Q52WX2) | cell-free assay, competition with immobilised ligand | 94 |
| STK17B (Homo sapiens, UniProt O94768) | cell-free assay, competition with immobilised ligand | 100 |
| PAK2 (Homo sapiens, UniProt Q13177) | cell-free assay, competition with immobilised ligand | 100 |
| MAPK15 (Homo sapiens, UniProt Q8TD08) | cell-free assay, competition with immobilised ligand | 100 |
| BRSK1 (Homo sapiens, UniProt Q8TDC3) | cell-free assay, competition with immobilised ligand | 99 |
| EIF2AK2 (Homo sapiens, UniProt P19525) | cell-free assay, competition with immobilised ligand | 100 |
| IKBKE (Homo sapiens, UniProt Q14164) | cell-free assay, competition with immobilised ligand | 70 |
| MAP2K7 (Homo sapiens, UniProt O14733) | cell-free assay, competition with immobilised ligand | 88 |
| DMPK (Homo sapiens, UniProt Q09013) | cell-free assay, competition with immobilised ligand | 93 |
| BMPR1B (Homo sapiens, UniProt O00238) | cell-free assay, competition with immobilised ligand | 71 |
| MAP3K13 (Homo sapiens, UniProt O43283) | cell-free assay, competition with immobilised ligand | 67 |
| CDKL3 (Homo sapiens, UniProt Q8IVW4) | cell-free assay, competition with immobilised ligand | 94 |
| CDK19 (Homo sapiens, UniProt Q9BWU1) | competition binding | 93 |
| RET (Homo sapiens, UniProt P07949, M918T) | cell-free assay, competition with immobilised ligand | 90 |
| EGFR (Homo sapiens, UniProt P00533, L858R) | cell-free assay, competition with immobilised ligand | 97 |
| STK35 (Homo sapiens, UniProt Q8TDR2) | cell-free assay, competition with immobilised ligand | 98 |
| MAPK8 (Homo sapiens, UniProt P45983) | cell-free assay, competition with immobilised ligand | 91 |
| SIK1 (Homo sapiens, UniProt P57059) | competition binding | 100 |
| SYK (Homo sapiens, UniProt P43405) | cell-free assay, competition with immobilised ligand | 100 |
| PAK4 (Homo sapiens, UniProt O96013) | cell-free assay, competition with immobilised ligand | 89 |
| NEK6 (Homo sapiens, UniProt Q9HC98) | cell-free assay, competition with immobilised ligand | 100 |
| CDK2 (Homo sapiens, UniProt P24941) | cell-free assay, competition with immobilised ligand | 99 |

Set 3
Organism: Sarcocystis neurona
Effect on: parasite growth
Concentration: 10 µM
Time: 96 h
Relative to: untreated
| SMILES | log2 fold change |
| --- | --- |
| O=C(c1ccccc1)c1ccc2n1CCC2C(=O)O (stereo not drawn) | 0.52 |
| COc1cc([C@@H]2c3cc4c(cc3[C@@H](O[C@@H]3O[C@@H]5CO[C@@H](C)O[C@H]5[C@H](O)[C@H]3O)[C@H]3COC(=O)[C@H]23)OCO4)cc(OC)c1O | 0.26 |
| O=C(CCCN1CCC(O)(c2ccc(Cl)cc2)CC1)c1ccc(F)cc1 | -0.31 |
| CC(=O)OCC(=O)[C@@]1(O)CC[C@H]2[C@@H]3CCC4=CC(=O)CC[C@]4(C)[C@H]3C(=O)C[C@@]21C | -0.08 |
| CC[C@H](C)C(=O)O[C@H]1C[C@@H](C)C=C2C=C[C@H](C)[C@H](CC[C@@H]3C[C@@H](O)CC(=O)O3)[C@H]21 | 0.28 |
| COC(=O)C1=C(C)NC(C)=C(C(=O)OCCN(C)Cc2ccccc2)C1c1cccc([N+](=O)[O-])c1 (stereo not drawn) | 0.4 |
| CCOC(=O)c1ncn2c1CN(C)C(=O)c1cc(F)ccc1-2 | 0.25 |
| COc1cc([C@@H]2c3cc4c(cc3[C@H](O)[C@H]3COC(=O)[C@H]23)OCO4)cc(OC)c1OC | -0.69 |
| CCc1cccc2c3c([nH]c12)C(CC)(CC(=O)O)OCC3 (stereo not drawn) | 0.4 |
| C[C@@H](O)[C@H]1C(=O)N2C(C(=O)O)=C(S[C@@H]3CN[C@H](C(=O)N(C)C)C3)[C@H](C)[C@H]12 | 0.19 |
| CC[C@H]1OC(=O)[C@H](C)[C@@H](O[C@H]2C[C@@](C)(OC)[C@@H](O)[C@H](C)O2)[C@H](C)[C@@H](O[C@@H]2O[C@H](C)C[C@H](N(C)C)[C@H]2O)[C@](C)(O)C[C@@H](C)CN(C)[C@H](C)[C@@H](O)[C@]1(C)O | -0.0368 |

Set 4
SMILES: CSc1nc(-c2ccnc(N[C@@H](C)c3ccccc3)c2)c(-c2ccc(F)cc2)[nH]1 (racemic)
Effect on: enzyme activity
Mode: inhibitor
Concentration: 0.5 µM
Relative to: control
| target | remaining activity |
| --- | --- |
| STK17A (Homo sapiens, UniProt Q9UEE5) | 97.8% |
| WNK3 (Homo sapiens, UniProt Q9BYP7) | 97.6% |
| MAPKAPK3 (Homo sapiens, UniProt Q16644) | 107% |
| SRMS (Homo sapiens, UniProt Q9H3Y6) | 104% |
| TSSK2 (Homo sapiens, UniProt Q96PF2) | 78.2% |
| Cyclin-dependent kinase 1, with cyclin B (CDK1, Homo sapiens, UniProt P06493) | 106% |
| AXL (Homo sapiens, UniProt P30530) | 109% |
| HIPK4 (Homo sapiens, UniProt Q8NE63) | 95.2% |
| EPHB4 (Homo sapiens, UniProt P54760) | 99.9% |
| DYRK3 (Homo sapiens, UniProt O43781) | 94.2% |
| PHKG1 (Homo sapiens, UniProt Q16816) | 91.8% |
| STK16 (Homo sapiens, UniProt O75716) | 95.1% |
| PDPK1 (Homo sapiens, UniProt O15530) | 91.3% |
| RPS6KA5 (Homo sapiens, UniProt O75582) | 97.3% |
| CAMK2B (Homo sapiens, UniProt Q13554) | 89.2% |
| Cyclin-dependent kinase 6, with cyclin D3 (CDK6, Homo sapiens, UniProt Q00534) | 98.3% |
| Cyclin-dependent kinase 4, with cyclin D3 (CDK4, Homo sapiens, UniProt P11802) | 111% |
| EPHA4 (Homo sapiens, UniProt P54764) | 93.1% |
| RPS6KA6 (Homo sapiens, UniProt Q9UK32) | 93.1% |
| BLK (Homo sapiens, UniProt P51451) | 110% |
| EPHB1 (Homo sapiens, UniProt P54762) | 96.4% |
| PRKACG (Homo sapiens, UniProt P22612) | 115% |
| HIPK2 (Homo sapiens, UniProt Q9H2X6) | 99.9% |
| MAP4K4 (Homo sapiens, UniProt O95819) | 91.6% |
